Experimental data from different studies.
Lines come from different studies, so protocols differ. Values joined by “and” are separate records of one study, mostly repeats; a detail may differ. Numbers after ± are the reported error.

C=CC(=O)Nc1cc(Nc2nccc(-c3c(-c4cccc(F)c4)n(C)c4ccccc34)n2)c(OC)cc1N(C)CCN(C)C
protein level (H1975; Western blot, measured: Bax; concentration not given, 24 h): increased

COc1cccc(OC)c1OCCCn1cc(CCCNc2nc3c(c(=O)[nH]2)[n+](C)cn3C2OC(COP(=O)(O)OP(=O)([O-])OP(=O)(O)OCC3OC(n4cnc5c(=O)[nH]c(N)nc54)C(O)C3O)C(O)C2O)nn1 (stereo not shown)
relative protein expression (HEK293 transfected with capped mRNA; luciferase expression; reference: m7GpppG-capped mRNA): 1.96 and 2

COc1cc(Cc2c[nH]c3ncc(C(F)(F)F)cc23)cc(OC)c1
inhibition (4T1; cell growth or viability, MTT; 10 µM, 72 h): 57%

Cc1cc(/N=N/c2ccc(/N=N/c3ccc(O)c(C(=O)O)c3)cc2)c(N)cc1N
protein level (primary mouse articular chondrocytes; western blot, measured: Phlpp2; micromass culture; 25 µM, dosed days 4–6 and 4–9): decreased

COc1cc(CNC(=O)C[C@H](C)CCC=C(C)C)ccc1OCc1cn(-c2cccc(Cl)c2)nn1
growth percent (OVCAR-8 ovarian cancer cells; SRB; 10 µM, 48 h): 57.3%

O=Cc1c(O)ccc2ccccc12
log2 fold change (HUVEC; RNA sequencing, measured: ADGRF5; 75 µM, 24 h; reference: DMSO): -4.3

COc1ccc([C@@H]2CC(=O)c3c(O)cc(O[C@@H]4O[C@H](CO[C@@H]5O[C@@H](C)[C@H](O)[C@@H](O)[C@H]5O)[C@@H](O)[C@H](O)[C@H]4O)cc3O2)cc1O
gap closure (A549; cell migration, scratch; 50 µg/mL, 24 h): 4.64 ± 0.58%

COc1cc(CNC(=O)C[C@H](C)CCC=C(C)C)ccc1OCc1cn(-c2cccc([N+](=O)[O-])c2)nn1
growth percent (OVCAR-4 ovarian cancer cells; SRB; 10 µM, 48 h): 63.6%

CC(C)=CCc1c(O)cc2c(c1O)C(=O)OC2
glucose consumption (HepG2, palmitic acid-induced insulin resistance; 10.0 µM, 24 h): 9.15 ± 0.38 mM

N[C@@H](CCC(=O)N[C@@H](CS[Se]Cc1ccc(-c2cc(C(F)(F)F)nn2-c2ccc(S(N)(=O)=O)cc2)cc1)C(=O)NCC(=O)O)C(=O)O
sub-G0/G1 cells (UACC-903 melanoma; propidium iodide flow cytometry; 25 µM, 72 h; reference: untreated): 4.7 fold

COc1cc(CNC(=O)C[C@H](C)CCC=C(C)C)ccc1OCc1cn(-c2ccc(Cl)cc2Cl)nn1
growth percent (SR leukaemia cells; SRB; 10 µM, 48 h): 79.8%

COc1cc(/C=C2\SC(=S)NC2=O)cc(OC)c1OCc1ccc(B2OC(C)(C)C(C)(C)O2)cc1
red fluorescence ratio (RAW264.7 cells expressing mito-FAST; flow cytometry; concentration not given, with: PMA; reference: PMA over no PMA): ~4 fold

CC(C)[C@@H](NC(=O)[C@H](N)CCCNC(=N)N)C(=O)N[C@H](CCCCN)C(=O)N[C@@H](C(=O)N[C@H](CCCCN)C(=O)N[C@@H](C(=O)N[C@@H](C(=O)N[C@@H](C(=O)N[C@@H](C(=O)N[C@H](CCCNC(=N)N)C(=O)N[C@H](CCCNC(=N)N)C(=O)N[C@H](CCCNC(=N)N)C(=O)N[C@H](CCCNC(=N)N)C(=O)N[C@H](CCCNC(=N)N)C(=O)N[C@H](CCCNC(=N)N)C(=O)N[C@H](CCCNC(=N)N)C(=O)N[C@H](CCCNC(=N)N)C(=O)N[C@H](CCCNC(=N)N)C(N)=O)C(C)C)C(C)C)C(C)C)C(C)C)C(C)C
CD40L expression (human PBMC CD4+ T cells; flow cytometry; 1.25 µM, 72 h, unstimulated): increased

COc1cc(CNC(=O)C[C@H](C)CCC=C(C)C)ccc1O
growth percent (OVCAR-3 ovarian cancer cells; SRB; 10 µM, 48 h): 94.8%

COc1ccc(-c2cc(C(F)(F)F)nc(SCC(=O)N(C)c3ccccc3)n2)cc1OC
insulin secretion (rat INS-1 832/13 cells; 20 µM, no GLP-1, with: 15 mM glucose; reference: DMSO): increased

COc1cc(CNC(=O)C[C@H](C)CCC=C(C)C)ccc1OCc1cn(-c2ccc(C#N)cc2)nn1
growth percent (MDA-MB-468 breast cancer cells; SRB; 10 µM, 48 h): 30.2%

CC(Cc1ccc(Cl)cc1)=C(c1ccc(Cl)cc1)c1ccc(OCCN2CCOCC2)cc1
growth inhibition (NCI-60 tumour cell lines; 10 µM, mean over cell lines): 0.12%

COc1cc(CNC(=O)C[C@H](C)CCC=C(C)C)ccc1OCc1cn(-c2ccc(Br)cc2)nn1
growth percent (MDA-MB-468 breast cancer cells; SRB; 10 µM, 48 h): 46.7%

Nc1ncnc2c1c(-c1ccccc1)cn2[C@H]1C[C@H](O)[C@@H](CO)O1
EC50 (HEK; cytotoxicity): > 200 µM

A few entries again:
COc1cc(Cc2c[nH]c3ncc(C(F)(F)F)cc23)cc(OC)c1
inhibition (4T1; cell growth or viability, MTT; 10 µM, 72 h): 57%

Cc1cc(/N=N/c2ccc(/N=N/c3ccc(O)c(C(=O)O)c3)cc2)c(N)cc1N
protein level (primary mouse articular chondrocytes; western blot, measured: Phlpp2; micromass culture; 25 µM, dosed days 4–6 and 4–9): decreased

COc1cc(CNC(=O)C[C@H](C)CCC=C(C)C)ccc1OCc1cn(-c2cccc(Cl)c2)nn1
growth percent (OVCAR-8 ovarian cancer cells; SRB; 10 µM, 48 h): 57.3%
